# Experimental data from different studies.
# By UniProt entry, the sequences of proteins in these tests, tags left out. Where a name states a change or a piece, a line headed by the entry shows the natural chain unless it says otherwise. Residues count along the entry.
# UniProt P09958, 108-715 limits assumed: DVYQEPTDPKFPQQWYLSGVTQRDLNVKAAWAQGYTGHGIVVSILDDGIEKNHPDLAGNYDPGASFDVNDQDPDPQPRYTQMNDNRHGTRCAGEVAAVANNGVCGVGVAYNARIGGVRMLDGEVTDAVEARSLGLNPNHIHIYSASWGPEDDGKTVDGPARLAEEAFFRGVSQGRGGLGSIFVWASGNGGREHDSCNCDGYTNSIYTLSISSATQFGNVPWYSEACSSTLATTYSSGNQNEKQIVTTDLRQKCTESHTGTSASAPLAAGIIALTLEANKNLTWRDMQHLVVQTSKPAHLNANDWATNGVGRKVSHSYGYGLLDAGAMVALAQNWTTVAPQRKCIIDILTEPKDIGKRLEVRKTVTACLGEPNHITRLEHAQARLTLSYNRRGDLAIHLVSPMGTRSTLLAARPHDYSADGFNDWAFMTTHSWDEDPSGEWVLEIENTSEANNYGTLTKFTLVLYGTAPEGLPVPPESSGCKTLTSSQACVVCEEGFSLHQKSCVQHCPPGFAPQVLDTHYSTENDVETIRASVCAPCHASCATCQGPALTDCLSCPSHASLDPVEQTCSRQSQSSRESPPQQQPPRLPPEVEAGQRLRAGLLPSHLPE
# UniProt P09958, whole entry, looked up: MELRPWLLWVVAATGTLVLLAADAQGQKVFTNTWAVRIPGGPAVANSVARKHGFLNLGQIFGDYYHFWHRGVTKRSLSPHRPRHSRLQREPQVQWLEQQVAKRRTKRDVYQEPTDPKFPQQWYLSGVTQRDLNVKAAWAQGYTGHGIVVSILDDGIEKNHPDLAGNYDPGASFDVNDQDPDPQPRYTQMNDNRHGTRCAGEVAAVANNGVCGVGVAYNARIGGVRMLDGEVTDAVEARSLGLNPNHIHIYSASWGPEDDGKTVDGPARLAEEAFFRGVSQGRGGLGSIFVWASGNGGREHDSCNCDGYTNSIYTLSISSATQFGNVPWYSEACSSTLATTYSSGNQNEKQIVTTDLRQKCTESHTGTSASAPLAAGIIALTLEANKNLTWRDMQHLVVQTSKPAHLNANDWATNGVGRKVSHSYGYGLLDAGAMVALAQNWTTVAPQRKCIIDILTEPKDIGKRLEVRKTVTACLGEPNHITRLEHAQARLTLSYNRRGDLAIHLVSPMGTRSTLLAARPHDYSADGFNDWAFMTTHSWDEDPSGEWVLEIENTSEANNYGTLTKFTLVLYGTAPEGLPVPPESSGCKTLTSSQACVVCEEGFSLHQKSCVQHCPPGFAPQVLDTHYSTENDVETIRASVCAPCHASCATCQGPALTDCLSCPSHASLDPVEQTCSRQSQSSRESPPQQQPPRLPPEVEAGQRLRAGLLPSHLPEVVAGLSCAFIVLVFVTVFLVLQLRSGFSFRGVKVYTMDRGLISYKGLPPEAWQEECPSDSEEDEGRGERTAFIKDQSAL
# UniProt P25084, 1-173 limits assumed: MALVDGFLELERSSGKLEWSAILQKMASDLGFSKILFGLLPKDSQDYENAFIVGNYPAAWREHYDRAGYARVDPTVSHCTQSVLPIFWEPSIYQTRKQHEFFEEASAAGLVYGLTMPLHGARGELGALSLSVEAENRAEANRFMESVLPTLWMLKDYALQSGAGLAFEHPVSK
# UniProt P25084, whole entry: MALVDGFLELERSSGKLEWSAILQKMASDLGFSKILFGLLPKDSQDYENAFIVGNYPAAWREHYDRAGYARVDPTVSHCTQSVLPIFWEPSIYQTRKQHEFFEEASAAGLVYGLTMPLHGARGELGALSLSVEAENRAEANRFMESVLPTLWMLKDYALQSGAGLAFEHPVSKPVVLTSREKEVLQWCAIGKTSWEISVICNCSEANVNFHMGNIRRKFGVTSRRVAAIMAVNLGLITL
# UniProt Q9VNB5, whole entry: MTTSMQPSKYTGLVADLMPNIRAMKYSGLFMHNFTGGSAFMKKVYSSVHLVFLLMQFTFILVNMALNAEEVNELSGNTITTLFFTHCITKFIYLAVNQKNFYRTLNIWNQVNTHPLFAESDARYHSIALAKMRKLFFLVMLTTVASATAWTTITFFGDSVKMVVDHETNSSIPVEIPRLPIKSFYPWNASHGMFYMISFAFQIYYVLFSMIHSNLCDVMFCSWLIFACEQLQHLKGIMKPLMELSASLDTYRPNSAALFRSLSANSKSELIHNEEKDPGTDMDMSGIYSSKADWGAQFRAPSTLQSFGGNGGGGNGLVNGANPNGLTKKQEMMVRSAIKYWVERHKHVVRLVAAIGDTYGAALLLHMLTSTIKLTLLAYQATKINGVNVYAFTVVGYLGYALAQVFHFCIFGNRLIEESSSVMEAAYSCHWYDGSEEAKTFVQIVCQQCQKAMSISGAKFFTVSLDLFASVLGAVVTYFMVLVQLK
# UniProt P45983, 1-384 isoform 3: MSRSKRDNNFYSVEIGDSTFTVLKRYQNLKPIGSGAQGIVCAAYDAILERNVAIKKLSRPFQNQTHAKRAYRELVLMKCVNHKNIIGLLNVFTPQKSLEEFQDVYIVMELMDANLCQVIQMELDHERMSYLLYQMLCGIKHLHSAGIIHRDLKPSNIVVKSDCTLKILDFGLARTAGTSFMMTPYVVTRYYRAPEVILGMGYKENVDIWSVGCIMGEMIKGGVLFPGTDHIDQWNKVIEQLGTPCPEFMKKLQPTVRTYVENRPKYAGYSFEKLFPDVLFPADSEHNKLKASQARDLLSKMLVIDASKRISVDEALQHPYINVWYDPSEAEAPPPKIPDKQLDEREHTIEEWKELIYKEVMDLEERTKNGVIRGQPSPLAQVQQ
# UniProt P42866, whole entry: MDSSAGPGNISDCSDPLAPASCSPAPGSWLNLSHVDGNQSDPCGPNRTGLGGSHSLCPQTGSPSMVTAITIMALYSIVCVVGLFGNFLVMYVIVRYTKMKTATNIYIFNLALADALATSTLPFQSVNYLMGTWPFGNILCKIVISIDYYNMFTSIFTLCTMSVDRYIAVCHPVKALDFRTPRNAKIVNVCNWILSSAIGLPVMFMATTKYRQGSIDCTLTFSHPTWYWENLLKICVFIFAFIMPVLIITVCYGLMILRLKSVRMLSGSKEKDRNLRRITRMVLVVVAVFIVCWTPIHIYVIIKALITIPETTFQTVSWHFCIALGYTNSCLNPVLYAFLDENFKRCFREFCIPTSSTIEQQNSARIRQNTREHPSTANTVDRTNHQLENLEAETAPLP
# UniProt Q9Y3Z3, whole entry: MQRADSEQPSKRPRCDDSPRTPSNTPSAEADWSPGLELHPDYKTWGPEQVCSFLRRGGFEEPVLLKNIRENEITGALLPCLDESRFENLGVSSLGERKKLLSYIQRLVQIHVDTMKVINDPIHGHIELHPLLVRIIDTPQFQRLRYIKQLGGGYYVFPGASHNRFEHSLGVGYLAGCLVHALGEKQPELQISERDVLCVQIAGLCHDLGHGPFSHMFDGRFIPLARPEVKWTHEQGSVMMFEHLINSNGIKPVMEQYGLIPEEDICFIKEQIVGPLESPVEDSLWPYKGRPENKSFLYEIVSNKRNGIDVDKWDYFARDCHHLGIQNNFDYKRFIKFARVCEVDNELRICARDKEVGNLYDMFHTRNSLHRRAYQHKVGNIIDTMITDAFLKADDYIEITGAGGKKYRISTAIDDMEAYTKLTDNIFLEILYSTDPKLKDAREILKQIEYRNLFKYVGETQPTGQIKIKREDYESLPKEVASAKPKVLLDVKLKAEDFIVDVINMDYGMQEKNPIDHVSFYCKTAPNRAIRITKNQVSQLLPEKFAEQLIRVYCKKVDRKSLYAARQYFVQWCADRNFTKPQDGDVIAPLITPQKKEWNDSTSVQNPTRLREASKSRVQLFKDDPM
# UniProt Q8RLA6, 21-275 limits assumed: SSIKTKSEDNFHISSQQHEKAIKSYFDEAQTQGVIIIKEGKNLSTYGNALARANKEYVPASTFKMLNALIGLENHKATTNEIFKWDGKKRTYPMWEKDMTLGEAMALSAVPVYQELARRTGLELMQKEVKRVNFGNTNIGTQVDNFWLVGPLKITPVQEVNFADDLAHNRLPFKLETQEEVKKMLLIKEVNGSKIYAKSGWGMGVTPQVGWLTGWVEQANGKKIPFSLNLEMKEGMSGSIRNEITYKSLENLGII
# UniProt P03420, 26-109 partner limits assumed: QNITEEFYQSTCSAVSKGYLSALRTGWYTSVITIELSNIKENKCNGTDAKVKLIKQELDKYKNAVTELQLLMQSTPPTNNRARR
# UniProt P14416, whole entry: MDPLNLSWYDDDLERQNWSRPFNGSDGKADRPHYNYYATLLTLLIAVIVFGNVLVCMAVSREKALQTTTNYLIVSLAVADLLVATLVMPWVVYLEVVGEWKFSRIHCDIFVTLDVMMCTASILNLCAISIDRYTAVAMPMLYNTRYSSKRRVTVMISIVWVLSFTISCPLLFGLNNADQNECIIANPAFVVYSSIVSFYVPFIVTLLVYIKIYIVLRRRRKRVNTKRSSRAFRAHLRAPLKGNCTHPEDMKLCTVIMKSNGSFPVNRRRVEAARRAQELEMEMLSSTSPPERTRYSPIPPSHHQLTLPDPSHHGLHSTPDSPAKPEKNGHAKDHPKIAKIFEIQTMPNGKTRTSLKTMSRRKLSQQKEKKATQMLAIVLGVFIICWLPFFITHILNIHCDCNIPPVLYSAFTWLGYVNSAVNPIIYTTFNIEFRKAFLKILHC
# UniProt Q9EP66, whole entry: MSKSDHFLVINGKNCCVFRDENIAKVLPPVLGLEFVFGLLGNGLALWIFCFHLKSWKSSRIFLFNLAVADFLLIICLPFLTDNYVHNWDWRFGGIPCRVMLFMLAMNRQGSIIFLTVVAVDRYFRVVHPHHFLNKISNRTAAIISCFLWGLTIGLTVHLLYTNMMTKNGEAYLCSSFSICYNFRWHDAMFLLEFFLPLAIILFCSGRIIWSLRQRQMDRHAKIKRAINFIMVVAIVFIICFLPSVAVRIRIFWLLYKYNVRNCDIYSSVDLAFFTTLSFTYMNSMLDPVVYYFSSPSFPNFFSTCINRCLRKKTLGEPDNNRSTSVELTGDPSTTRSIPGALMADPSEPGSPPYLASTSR
# UniProt Q05769, 18-604 limits assumed: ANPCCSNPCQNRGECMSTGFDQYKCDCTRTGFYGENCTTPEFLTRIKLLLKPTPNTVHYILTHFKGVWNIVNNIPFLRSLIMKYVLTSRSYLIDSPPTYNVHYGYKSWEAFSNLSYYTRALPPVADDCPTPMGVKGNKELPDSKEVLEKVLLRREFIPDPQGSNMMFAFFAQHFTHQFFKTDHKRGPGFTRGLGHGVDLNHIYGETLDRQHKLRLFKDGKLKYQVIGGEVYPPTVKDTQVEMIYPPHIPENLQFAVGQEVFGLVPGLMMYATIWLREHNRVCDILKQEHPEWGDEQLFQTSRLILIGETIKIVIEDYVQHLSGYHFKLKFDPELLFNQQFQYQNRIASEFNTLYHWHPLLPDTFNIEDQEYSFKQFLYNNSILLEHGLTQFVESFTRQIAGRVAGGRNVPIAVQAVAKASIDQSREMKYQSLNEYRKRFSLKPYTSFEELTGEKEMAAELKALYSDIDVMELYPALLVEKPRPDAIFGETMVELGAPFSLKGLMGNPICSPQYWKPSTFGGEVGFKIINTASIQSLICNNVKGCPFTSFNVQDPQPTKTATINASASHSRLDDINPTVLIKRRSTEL
# UniProt Q07440, whole entry P104K/C113S, looked up: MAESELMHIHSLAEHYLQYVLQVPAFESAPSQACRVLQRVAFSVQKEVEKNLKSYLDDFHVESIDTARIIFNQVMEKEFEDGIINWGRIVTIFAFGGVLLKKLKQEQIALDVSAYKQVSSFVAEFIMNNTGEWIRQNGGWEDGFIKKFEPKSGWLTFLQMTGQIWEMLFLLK
# UniProt P51452, 28-179 limits assumed: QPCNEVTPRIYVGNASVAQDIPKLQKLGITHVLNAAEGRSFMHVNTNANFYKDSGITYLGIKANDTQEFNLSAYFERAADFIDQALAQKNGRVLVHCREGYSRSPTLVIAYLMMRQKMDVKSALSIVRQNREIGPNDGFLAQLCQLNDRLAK
# UniProt P0A6K3, whole entry: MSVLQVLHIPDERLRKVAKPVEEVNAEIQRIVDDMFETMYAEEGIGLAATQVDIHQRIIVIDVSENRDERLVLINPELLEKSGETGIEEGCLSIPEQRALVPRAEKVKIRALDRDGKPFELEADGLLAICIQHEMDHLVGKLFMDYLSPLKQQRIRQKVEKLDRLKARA
# UniProt Q96SW2, whole entry: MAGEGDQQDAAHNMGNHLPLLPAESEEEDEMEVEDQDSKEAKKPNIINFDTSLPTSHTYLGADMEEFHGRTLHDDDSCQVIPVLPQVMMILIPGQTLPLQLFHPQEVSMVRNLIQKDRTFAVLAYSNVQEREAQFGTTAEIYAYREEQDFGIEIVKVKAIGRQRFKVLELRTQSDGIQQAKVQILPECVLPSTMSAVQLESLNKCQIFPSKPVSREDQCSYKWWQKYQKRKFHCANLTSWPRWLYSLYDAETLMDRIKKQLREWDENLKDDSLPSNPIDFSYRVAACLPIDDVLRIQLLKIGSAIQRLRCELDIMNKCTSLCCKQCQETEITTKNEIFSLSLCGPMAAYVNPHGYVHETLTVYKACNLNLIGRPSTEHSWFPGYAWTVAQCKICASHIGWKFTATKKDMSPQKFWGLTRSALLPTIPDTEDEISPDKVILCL
# Each line is one published result; not all experiments were run side by side. Numbers after ± are the reported error.
# FURIN: Furin (FURIN, Homo sapiens, UniProt P09958)
# lasR: Transcriptional activator protein LasR (lasR, Pseudomonas aeruginosa, UniProt P25084)
# Orco: Orco (Drosophila melanogaster, UniProt Q9VNB5)
# MAPK8: Mitogen-activated protein kinase 8 (MAPK8, Homo sapiens, UniProt P45983)
# HDAC6: Protein deacetylase HDAC6 (HDAC6, Homo sapiens, UniProt Q9UBN7)
SMILES,target,test,system,conditions,how to read,endpoint,result
C#CCN1CC[C@]23c4c5ccc(O)c4O[C@H]2[C@H](NC(=O)c2ccc(N=[N+]=[N-])c([125I])c2)CC[C@@]3(O)[C@H]1C5,"Mu-type opioid receptor (Oprm1, Mus musculus, UniProt P42866)",binding,CHO cell membranes,"0.1 nM, 25 °C",,fast dissociation half-life,5.2 min
Nc1nc2c(ncn2[C@H]2C[C@H](O)[C@@H](COP(=O)(O)OCCCNC(=O)c3cccc(-c4cccc(Br)c4)c3)O2)c(=O)[nH]1,"Deoxynucleoside triphosphate triphosphohydrolase SAMHD1 (SAMHD1, Homo sapiens, UniProt Q9Y3Z3)",differential scanning fluorimetry,,"50 µM, 3 µM apo protein",,delta Tm,6.1 °C
C=CCN1CC[C@]23c4c5ccc(O)c4O[C@H]2[C@H](NC(=O)c2ccc(N=[N+]=[N-])c([125I])c2)CC[C@@]3(O)[C@H]1C5,"Mu-type opioid receptor (Oprm1, Mus musculus, UniProt P42866)",binding,CHO cell membranes,0 °C,,dissociation half-life (slow phase),4.07 h
COc1cccc2c(N3CCC(CCP(=O)(O)O)CC3)ncnc12,"Ectonucleotide pyrophosphatase/phosphodiesterase family member 1 (Enpp1, Mus musculus, UniProt P06802)",cGAMP degradation,mouse plasma,,,IC95,40 nM
CC(=O)NCCCC[C@H](NC(=O)CNC(=O)[C@H](CCCNC(=N)N)NC(C)=O)C(N)=O,"Histone deacetylase 8 (HDAC8, Homo sapiens, UniProt Q9BY41)","deacetylation, substrate",,"25 °C, added: 150 nM enzyme",,kcat,0.09 ± 0.05 s⁻¹
O=C(N[C@H]1CCCC[C@@H]1O)C1CN(Cc2ccc(-n3cccn3)cc2)c2ccccc2O1 (stereo partly shown),"Muscarinic acetylcholine receptor M1 (CHRM1, Homo sapiens, UniProt P11229)","calcium mobilization, positive allosteric modulator",high-expression cell line,added: acetylcholine EC20,relative to: acetylcholine max,efficacy,77 ± 7%
N#Cc1cc(C(=O)N[C@@H]2CC[C@@]3(O)[C@H]4Cc5ccc(O)c6c5[C@@]3(CCN4CC3CC3)[C@H]2O6)ccn1,"Mu-type opioid receptor (Oprm1, Rattus norvegicus, UniProt P33535)",agonist,CHO cell membranes,5 µM,relative to: DAMGO,Emax,58.1 ± 1.48%
CC(C)C[C@H](NC(=O)[C@H](CC(N)=O)NC(=O)c1ccccc1N)C(=O)N[C@@H](CCCNC(=N)N)C(=O)N[C@@H](CCCNC(=N)N)C(=O)N[C@@H](CCCNC(=N)N)C(=O)N[C@@H](CCCNC(=N)N)C(=O)N[C@@H](CC(=O)O)C(=O)N[C@@H](CC(C)C)C(=O)N[C@H](C(=O)N[C@@H](CC(=O)O)C(=O)N[C@@H](CCC(N)=O)C(=O)NCCNc1ccc([N+](=O)[O-])cc1[N+](=O)[O-])C(C)C,FURIN,substrate,,pH 7,,Km,0.33 µM
O=S(=O)(O)c1ccc2cc(S(=O)(=O)O)ccc2c1,"Beta-lactamase (blaOXA-33, Acinetobacter baumannii, UniProt Q8RLA6)","enzyme activity, inhibitor",,,,ligand efficiency,0.29
O=c1ccn([C@@H]2O[C@H](COP(=O)(O)OP(=O)(O)OP(=O)(O)O)[C@@H](O)[C@]2(F)Br)c(=O)[nH]1,"Genome polyprotein, NS5B polymerase (Hepatitis C virus genotype 1a, UniProt P27958)",polymerase activity,genotype 1a,,relative to: genotype 1b,IC50 fold change,0.59
O=C(NCc1cc(Br)cc(Br)c1OC(=O)c1ccccc1Cl)c1ccccc1Cl,lasR,"thermal stability, differential scanning fluorimetry",,,,melting temperature,64.3 °C
Cc1nc2c[nH]c(/C=C/C=C/c3ccc(N(C)C)cc3)cn-2c1=O,"Alpha-synuclein, CSF-derived seeds (SNCA, Homo sapiens, UniProt P37840)","seeded aggregation, PMCA",cerebrospinal fluid,"concentration not given, seed 70 fM, added: alpha-synuclein monomer 70 µM",relative to: control,signal increase after PMCA,3956 ± 32 fold
COc1ccc(C(=O)Oc2c(Br)cc(Br)cc2CNC(=O)c2ccccc2[N+](=O)[O-])cc1,lasR,"reporter gene, agonist",Escherichia coli JLD271 lasI-lacZ reporter,,relative to: OdDHL,maximum efficacy,105%
CCCn1c(SCC(=O)Nc2ccc(C(C)C)cc2)nnc1-c1ccncc1,Orco,"calcium mobilization, agonist",HEK293 expressing Drosophila Orco,,relative to: VUAA1,efficacy,28%
O=C(NCc1cc(Br)cc(Br)c1O)c1ccccc1[N+](=O)[O-],lasR,"thermal stability, differential scanning fluorimetry",,,,melting temperature,50.5 ± 0.5 °C
CS(=O)(=O)CCCn1c(Cn2c(=O)n(C3CC3)c3ccncc32)nc2cc(Br)ccc21,"Fusion glycoprotein F0, prefusion DS-Cav1 (Human respiratory syncytial virus A, UniProt P03420, I379V/M447V/S155C/S190F/S290C/V207L)",isothermal titration calorimetry,"respiratory syncytial virus A2, PBS with 1% DMSO","concentration not given, 25 °C, per prefusion F trimer",,binding stoichiometry,1.1 ± 0.14
COc1ccc(CN[C@@H]2CO[C@H](C(c3ccccc3)c3ccccc3)C[C@H]2O)cc1,"D(2) dopamine receptor (DRD2, Homo sapiens, UniProt P14416)",radioligand binding,,"10 µM, added: [3H]N-methylspiperone",,inhibition,3.2%
CC(C)C[C@H](NC(=O)c1ccccc1N)C(=O)N[C@@H](CCCCN)C(=O)N[C@@H](CCCNC(=N)N)C(=O)N[C@@H](CCCNC(=N)N)C(=O)N[C@@H](CCCNC(=N)N)C(=O)N[C@@H](CCCNC(=N)N)C(=O)N[C@@H](CC(=O)O)C(=O)N[C@H](C(=O)N[C@@H](CCC(N)=O)C(=O)N[C@@H](CCC(N)=O)C(=O)N[C@@H](CCC(N)=O)C(=O)NCCNc1ccc([N+](=O)[O-])cc1[N+](=O)[O-])[C@@H](C)O,FURIN,substrate,,pH 7,,Km,5.2 µM
O=S(=O)(O)c1ccc2c(c1)Cc1cc(S(=O)(=O)O)ccc1-2,"Beta-lactamase OXA-48 (OXA-48, Klebsiella pneumoniae, UniProt Q6XEC0)",enzyme activity,,,,ligand efficiency,0.38
N#Cc1ccccc1C(=O)Oc1c(Br)cc(Br)cc1CNC(=O)c1ccccc1[N+](=O)[O-],lasR,"thermal stability, differential scanning fluorimetry",,,,melting temperature,64.5 °C
C1c2c(-c3nnn[nH]3)n[nH]c2[C@@H]2C[C@H]12,"Hydroxycarboxylic acid receptor 2 (Hcar2, Mus musculus, UniProt Q9EP66)","cAMP level, agonist, GloSensor",cells expressing wild-type mouse receptor,,,Emax,~55%
C=Cc1ccc(NC(=O)CSc2nnc(-c3cccnc3)n2C2CC2)cc1,Orco,"calcium mobilization, agonist",HEK293 expressing Drosophila Orco,,relative to: VUAA1,efficacy,126%
COC(=O)[C@@]1(C)C=C(C(=O)Nc2ccc(C)c(C(=O)Nc3ccc(Nc4nccc(-c5cccnc5)n4)cc3)c2)C(=O)CC1,MAPK8,"kinase activity, inhibitor",,"8.363e-05 µM, unit not given, added: 10 mM GSH",relative to: DMSO,remaining activity,0.911
COc1ccc2c(c1)c(CC(=O)NCCCCNC(=O)CCC(=O)OC1c3cc4c(cc3C(c3cc(OC)c(OC)c(OC)c3)C3C(=O)OCC13)OCO4)c(C)n2C(=O)c1ccc(Cl)cc1 (stereo not shown),"Prostaglandin G/H synthase 2 (Ptgs2, Mus musculus, UniProt Q05769)",,,"concentration not given, plateau, high concentration",,remaining activity,20%
O=[N+]([O-])c1cc(N=Nc2c(O)ccc3cc(S(=O)(=O)O)ccc23)c(O)c([N+](=O)[O-])c1,"Bcl-2-related protein A1 (Mus musculus, UniProt Q07440, C113S/P104K)","binding, inhibitor, fluorescence polarization competition",,"100 µM, overnight, 20 °C, added: FITC-Noxa peptide 375 nM",relative to: peptide without protein,Noxa peptide bound,56.8%
O=C(CCl)c1ccc2c(Nc3ccccc3)ncnc2c1,"Ephrin type-B receptor 3 (EPHB3, Homo sapiens, UniProt P54753)",ESI-MS,,covalent adduct,,protein mass increase,259 Da
CC(=O)N[C@@H](Cc1c[nH]cn1)C(=O)N[C@H](C(=O)NCC(=O)N[C@@H](Cc1ccccc1)C(=O)N[C@@H](CC(C)C)C(=O)N[C@H](C(=O)N[C@@H](CCC(=O)O)C(=O)N[C@@H](Cc1cc(=O)oc2cc(OP(=O)(O)O)ccc12)C(=O)N[C@H](C(=O)N[C@@H](C)C(=O)N[C@H](C(=O)N[C@@H](CCCNC(=N)N)C(=O)N[C@@H](Cc1c[nH]c2ccccc12)C(N)=O)[C@@H](C)O)C(C)C)[C@@H](C)OP(=O)(O)O)[C@@H](C)O,"Dual specificity protein phosphatase 3 (DUSP3, Homo sapiens, UniProt P51452)",substrate,,"pH 6, ERK1/2 activation-loop peptide",,kcat,0.26 s⁻¹
CC(=O)N[C@@H](CCCNC(=N)N)C(=O)N[C@H](C(=O)N[C@@H](CCCNC(=N)N)C(=O)N[C@@H](CCCNC(=N)N)C(=O)Nc1ccc2c(C)cc(=O)oc2c1)C(C)C,FURIN,substrate,,pH 7,,kcat,0.7 s⁻¹
C=CCn1c(SCC(=O)Nc2ccc(C(C)C)cc2)nnc1-c1ccncc1,Orco,"calcium mobilization, agonist",HEK293 expressing Drosophila Orco,,relative to: VUAA1,efficacy,111%
CC(=O)NCCCC[C@H](NC(C)=O)C(=O)N[C@@H](Cc1c[nH]c2ccccc12)C(N)=O,HDAC6,"deacetylation, substrate",,"25 °C, added: 10 to 50 nM enzyme",,kcat,0.19 ± 0.02 s⁻¹
CC1(C)SCN(C(=O)[C@@H](O)[C@H](Cc2ccccc2)NC(=O)COc2ccccc2)[C@@H]1C(=O)N[C@H]1c2ccccc2C[C@H]1O,"Gag-Pol polyprotein, protease (gag-pol, Human immunodeficiency virus type 1 group M subtype B, UniProt P04585, L521I/L551I/Q495K)",isothermal titration calorimetry,,"concentration not given, pH 5.0, 25 °C",,ΔH of binding,-4.5 kcal/mol
Nc1nnc(SSc2nnc(N)s2)s1,"Peptide deformylase (def, Escherichia coli, UniProt P0A6K3)",binding,,,,ΔΔG isomerization step,-3.2 kcal/mol
COC(=O)[C@@]1(C)C=C(C(=O)Nc2cc(C(=O)Nc3ccc(Nc4nccc(-c5cccnc5)n4)cc3)ccc2C)C(=O)CC1,MAPK8,"kinase activity, inhibitor",,"0.006774 µM, unit not given, added: 10 mM GSH",relative to: DMSO,remaining activity,0.686
CC(=O)NCCCC[C@H](NC(=O)[C@H](CCCCNC(C)=O)NC(=O)[C@H](Cc1c[nH]cn1)NC(=O)[C@H](CCCNC(=N)N)NC(C)=O)C(N)=O,HDAC6,"deacetylation, substrate",,"25 °C, added: 10 to 50 nM enzyme",,kcat/KM,620 ± 180 M⁻¹ s⁻¹
COc1ccc2c(c1)sc1nc(-c3ccc4c(c3)CN(C3CCC(=O)NC3=O)C4=O)c(NCc3ccccc3)n12 (stereo not shown),"WEE1/CRBN (Homo sapiens, UniProt P30291+Q96SW2)","degrader, HiBiT",Jurkat,5 h,,Dmax,83%
O=C(Oc1c(Br)cc(Br)cc1CNC(=O)c1ccccc1[N+](=O)[O-])c1ccc(Br)cc1,lasR,"reporter gene, agonist",Escherichia coli JLD271 lasI-lacZ reporter,,relative to: OdDHL,maximum efficacy,91%
COC(=O)[C@@H](CS)N1C(=O)c2ccc(N(C)C)cc2C1=O,"Metallo-beta-lactamase type 2 (blaNDM-1, Klebsiella pneumoniae, UniProt C7C422, A233V/M154L)",probe,,"10 µM, NDM-15 variant, probe:enzyme 1:3, added: ZnSO4 50 µM",relative to: probe alone,fluorescence increase,17.8 fold

# A few entries again:
SMILES,target,test,system,conditions,how to read,endpoint,result
O=C(N[C@H]1CCCC[C@@H]1O)C1CN(Cc2ccc(-n3cccn3)cc2)c2ccccc2O1 (stereo partly shown),"Muscarinic acetylcholine receptor M1 (CHRM1, Homo sapiens, UniProt P11229)","calcium mobilization, positive allosteric modulator",high-expression cell line,added: acetylcholine EC20,relative to: acetylcholine max,efficacy,77 ± 7%
COC(=O)[C@@H](CS)N1C(=O)c2ccc(N(C)C)cc2C1=O,"Metallo-beta-lactamase type 2 (blaNDM-1, Klebsiella pneumoniae, UniProt C7C422, A233V/M154L)",probe,,"10 µM, NDM-15 variant, probe:enzyme 1:3, added: ZnSO4 50 µM",relative to: probe alone,fluorescence increase,17.8 fold
O=C(NCc1cc(Br)cc(Br)c1OC(=O)c1ccccc1Cl)c1ccccc1Cl,lasR,"thermal stability, differential scanning fluorimetry",,,,melting temperature,64.3 °C
